Measured values collected from several papers.
Lines come from different studies, so protocols differ. ± gives the spread as reported.
UniProt P49116, sequence (whole entry, looked up): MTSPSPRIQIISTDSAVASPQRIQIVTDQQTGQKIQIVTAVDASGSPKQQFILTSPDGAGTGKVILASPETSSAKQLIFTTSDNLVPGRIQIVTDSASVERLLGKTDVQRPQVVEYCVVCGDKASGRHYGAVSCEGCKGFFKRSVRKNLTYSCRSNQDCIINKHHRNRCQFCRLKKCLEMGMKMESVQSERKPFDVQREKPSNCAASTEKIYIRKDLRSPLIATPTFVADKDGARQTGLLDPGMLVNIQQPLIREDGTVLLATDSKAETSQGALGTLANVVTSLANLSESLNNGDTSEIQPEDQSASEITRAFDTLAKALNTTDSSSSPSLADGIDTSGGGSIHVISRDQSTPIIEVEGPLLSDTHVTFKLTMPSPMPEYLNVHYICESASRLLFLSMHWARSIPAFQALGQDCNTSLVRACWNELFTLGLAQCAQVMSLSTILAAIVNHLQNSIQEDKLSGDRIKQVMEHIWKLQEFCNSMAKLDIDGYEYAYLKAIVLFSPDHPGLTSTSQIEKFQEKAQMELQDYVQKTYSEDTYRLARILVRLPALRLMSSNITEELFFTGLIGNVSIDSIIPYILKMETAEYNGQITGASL

For `CCCCOc1nc(N)c2c(n1)N(Cc1cccc(CN3CCCC3)c1)CC(=O)N2`, “drug-related TEAE incidence” read 0% (measured: Nausea; human; oral, 2 mg).
For `Cc1ccc(Sc2ccccc2N2CCNCC2)c(C)c1`, “participants with TEAE” read 0% (measured: blood in urine; healthy adult women; oral, 10 mg daily, 12 days).
Under “blood Lymph change”, `CCc1cc(C(=O)NC)c2nccc(N3CCc4c(cc(Cn5ccnc5)cc4-c4cn(C)nc4C(F)(F)F)C3=O)c2c1` is recorded as -26.8% (Sprague Dawley rats; oral, 100 mg/kg twice daily, 7 days; reference: vehicle).
`OCCOCc1ccc(-c2noc(-c3ccc(OCC[18F])c(C(F)(F)F)c3)n2)cc1`: “absorbed radiation dose” 0.31 mSv/MBq (Macaca mulatta, gallbladder; female phantom OLINDA/EXM).
Under “subjects with TEAE Anemia”, `O=C(O)CCC(=O)O.[2H]C([2H])([2H])Oc1cc(C)c2[nH]ccc2c1CN1CC[C@@H](C2CC2)C[C@H]1c1ccc(C(=O)O)cc1` is recorded as 0% (multiple ascending dose; healthy Chinese subjects; 200 mg once daily).
The oral bioavailability of `Cc1nc(-c2cnc(NC(C)C)n(C)c2=O)ccc1Oc1ccnc(-c2cnn(C)c2)c1` is reported as 24.1% (Beagle dog, male, plasma; oral, 30 mg/kg, crossover study, mean).
`COc1cc2c(NC3CCN(C4CCCCC4)CC3)nc(N3CCCN(C(C)C)CC3)nc2cc1OCCCN1CCCCC1` has a viability of 145% (OCI-Ly1; 1 µM, 120 h).
For `O=C(N[C@H](CO)[C@H](O)c1ccc([N+](=O)[O-])cc1)C(Cl)Cl`, the amount permeated was 5.81 nmol (starch gel membrane permeability; Gram-negative envelope surrogate; 200 µM, 90 min, pH 7.4).
`COc1cc2c(cc1OC)C(=O)C(CC1CCN(Cc3ccccc3)CC1)C2` (centres unmarked): “VAS score change” 0.8 mm (Bond-Lader VAS, measured: Alertness; human; dose not given; reference: placebo, direction not given).
`Cc1cc(Nc2ccc(NC(=O)c3ccc(Nc4ccnc5ccccc45)cc3)cc2)nc(N)n1` has a viability of 8.61% (OCI-Ly1; 1 µM, 120 h).
The Kd of `O=C1Cc2cc(CCN3CCN(c4nsc5ccccc45)CC3)c(Cl)cc2N1` is reported as 24.9 pM (Nuclear receptor subfamily 2 group C member 2, ligand-binding domain (Homo sapiens, UniProt P49116); SPR imaging).
`Cc1c2oc3c(C)ccc(C(=O)N[C@@H]4C(=O)N[C@H](C(C)C)C(=O)N5CCC[C@H]5C(=O)N(C)CC(=O)N(C)[C@@H](C(C)C)C(=O)O[C@@H]4C)c3nc-2c(C(=O)N[C@@H]2C(=O)N[C@H](C(C)C)C(=O)N3CCC[C@H]3C(=O)N(C)CC(=O)N(C)[C@@H](C(C)C)C(=O)O[C@@H]2C)c(N)c1=O` — result for “minimum plasma concentration”: 3.3 µg/L (children with cancer, plasma; dose not given, 30 min).
Under “postural dizziness participants”, `O=C(COc1ccc(Cl)cc1)NC12CC(c3nnc([C@H]4C[C@@H](OC(F)(F)F)C4)o3)(C1)C2` is recorded as 16.7% (human both sexes; oral, 800 mg single dose).
With `O=C(O)c1ccccc1` the plasma concentration was 58.3 µM (human plasma; median, both sexes).
For `Cc1nc2ccc(OCc3ccc(C(F)(F)F)cc3)cc2[nH]1`, the tissue/plasma ratio was 11.9 ± 1.6 (male Balb/c mice, liver; oral, 10 mg/kg, 4 h; reference: tissue over plasma).
`COc1cc(Nc2ncc3c(n2)-c2ccc(Cl)cc2C(c2c(F)cccc2OC)=NC3)ccc1C(=O)O` — result for “decreased platelet count incidence”: 13% (patients; oral, dose not given, grade 2, any attribution, added: pembrolizumab).
`CCCCOC(=O)N1CCN(C(=O)[C@H](CP(=O)(O)O)NC(=O)c2cc(N3CC[C@H](OC)C3)nc(-c3ccccc3)n2)CC1`: “change in QTcB interval” 1.7 ± 12.5 ms (human; subcutaneous, 16 mg, 24 h post-dose; reference: baseline).
For `O=C(Nc1nc2cccc(-c3ccc(CN4CCS(=O)(=O)CC4)cc3)n2n1)C1CC1`, “treatment-emergent adverse events” read 5.9% (measured: aspartate aminotransferase increased; human rheumatoid arthritis patients; oral, 30 mg once daily, 4 weeks, regardless of relatedness).
`COc1ccc(C=CC(=O)O)cc1OS(=O)(=O)O` gave a plasma concentration of 0.424 µM (human plasma; median).
`CCOc1c([C@H](C)n2nc(C)c3c(N)ncnc32)cc(Cl)c(F)c1[C@@H]1CNC(=O)C1` gave an ECG observations of 0% (measured: QRS >100 to ≤110 ms; previously treated B-cell malignancy; oral, 15 mg once daily, baseline below thresholds).
The AUC(0-all) of `Cc1cc(-c2ccc3cc[nH]c(=O)c3c2)ccc1O[C@H]1O[C@H](CO)[C@@H](O)[C@H](O)[C@@H]1O` is reported as 29.6 ng·h/mL (male Sprague-Dawley rat, plasma; oral, 10 mg/kg, group mean).
`COC(=O)C[C@H](NC(=O)[C@H](Cc1ccccc1)NC(=O)C[C@H](CC(C)C)NC(=O)[C@H](CC(=O)OC)NC(=O)[C@H](Cc1cccnc1)NC(=O)CCCCCNC(=O)CCCCCNC(=O)CCCc1cn(CCF)nn1)C(=O)COC(=O)c1ccc(C)s1` [fluorine-18 labelled] gave a tumour uptake of less than 0.2 %ID/g (xenograft tumour; conatumumab-treated).
For `CNC(=O)c1ccc(-c2cnc3ncc(Cc4ccc5ncccc5c4)n3n2)cc1F`, “patients with adverse event” read 0% (measured: Cough, all grades; hepatocellular carcinoma patients; oral, 600 mg twice daily, expansion cohort, any causality).
